Experimental data from different studies.
Parts stem from different laboratories: compare values within a part only.

Series 1 — technique: RNA Bind-n-Seq; molecule type: RNA; sample: in vitro; concentration: 200 nM; setting: whole 134-nt RNA, ends assumed; added: 150 mM KCl; baseline: input library; reading: higher = stronger binding
Target: Ras GTPase-activating protein-binding protein 1, full length (G3BP1, Homo sapiens, UniProt Q13283)
UniProt Q13283, sequence (whole entry, looked up): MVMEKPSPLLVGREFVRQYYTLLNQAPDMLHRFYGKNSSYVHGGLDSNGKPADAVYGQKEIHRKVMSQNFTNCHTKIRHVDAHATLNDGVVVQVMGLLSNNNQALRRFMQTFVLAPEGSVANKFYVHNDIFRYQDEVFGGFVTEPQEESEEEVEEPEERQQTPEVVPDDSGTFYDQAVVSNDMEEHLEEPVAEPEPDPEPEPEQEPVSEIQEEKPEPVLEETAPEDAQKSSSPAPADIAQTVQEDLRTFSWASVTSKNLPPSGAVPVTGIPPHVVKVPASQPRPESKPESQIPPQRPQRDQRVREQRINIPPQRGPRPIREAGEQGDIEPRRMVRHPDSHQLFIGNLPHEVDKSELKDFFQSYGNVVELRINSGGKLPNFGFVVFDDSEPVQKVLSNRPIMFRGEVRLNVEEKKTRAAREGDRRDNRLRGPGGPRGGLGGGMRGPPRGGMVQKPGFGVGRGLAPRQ
Constant ends, left off below: GGGAGUUCUACAGUCCGACGAUC … UGGAAUUCUCGGGUGUCAAGG
Strand | log2 enrichment
GUCCUGUGCUACACAUCGUAUGUACCGAAUCGGUUUUUUGGGGUUUUUUGGUUUUUUGGAAAGUAUUAUGUUACGCCGUUCGGAUCUGCA | -0.903
UGUGCUACACAUCGUAUGUACCGAAUCGGGUUUUUUUGGGUUUUUUUGGGGUUUUUUUGGGGAAAGUAUUAUGUUACGCCGUUCGGAUCU | -0.796
UGGGAGGUGGAUUUUGUUUAUUUUUUUAGCUCAUUUCCAGGGGUGGGAAUUUUUUUUUGAUAUGUGUCAUGAAUAAAGUUGUUUUUGAAA | 0.31
UGUGCUACACAUCGUAUGUACCGAAUCGGGGAAAAAGGGGUUUUUUUGGGGUUUUUUUGGGGAAAGUAUUAUGUUACGCCGUUCGGAUCU | -0.346
AGUCCUGUGCUACACAUCGUAUGUACCGAAUCGGAAAAAGGAAAAAGGGAAAAAGGGAAAGUAUUAUGUUACGCCGUUCGGAUCUGCACU | -1.2
UUUCUGCAGCAUUAGAGAAGGCCCAAGAAGAAGCCCGUCAGCAGCAAGAAACAUUAGCCAUUCAAGUAAGCAAUGGAUGAUGAAUUAGAG | -1.2

Series 2 — technique: protein binding microarray; molecule type: double-stranded DNA, one strand shown; sample: in vitro; concentration: not given; baseline: not given; reading: higher = stronger binding
Target: Histone acetyltransferase KAT6A, winged helix 1, GST fusion (KAT6A, Homo sapiens, UniProt Q92794, residues 1-85)
Setting: 8-mer, flanks averaged, mean of 2 arrays, mostly near background
Target sequence (chain): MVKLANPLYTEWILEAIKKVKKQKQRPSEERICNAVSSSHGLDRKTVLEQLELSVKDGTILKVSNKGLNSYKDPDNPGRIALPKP
Strand | E-score
CAGTACAG | -0.184
AGACACGC | 0.203
CAGGATCA | -0.147
GATCTCGA | -0.0281

Series 3 — technique: universal PBM; molecule type: double-stranded DNA, one strand shown; sample: in vitro; concentration: 600 nM; reading: higher = stronger binding
Target: Sal-like protein 4, full length isoform A (SALL4, Homo sapiens, UniProt Q9UJQ4, residues 1-1053)
UniProt Q9UJQ4, sequence (whole entry, looked up): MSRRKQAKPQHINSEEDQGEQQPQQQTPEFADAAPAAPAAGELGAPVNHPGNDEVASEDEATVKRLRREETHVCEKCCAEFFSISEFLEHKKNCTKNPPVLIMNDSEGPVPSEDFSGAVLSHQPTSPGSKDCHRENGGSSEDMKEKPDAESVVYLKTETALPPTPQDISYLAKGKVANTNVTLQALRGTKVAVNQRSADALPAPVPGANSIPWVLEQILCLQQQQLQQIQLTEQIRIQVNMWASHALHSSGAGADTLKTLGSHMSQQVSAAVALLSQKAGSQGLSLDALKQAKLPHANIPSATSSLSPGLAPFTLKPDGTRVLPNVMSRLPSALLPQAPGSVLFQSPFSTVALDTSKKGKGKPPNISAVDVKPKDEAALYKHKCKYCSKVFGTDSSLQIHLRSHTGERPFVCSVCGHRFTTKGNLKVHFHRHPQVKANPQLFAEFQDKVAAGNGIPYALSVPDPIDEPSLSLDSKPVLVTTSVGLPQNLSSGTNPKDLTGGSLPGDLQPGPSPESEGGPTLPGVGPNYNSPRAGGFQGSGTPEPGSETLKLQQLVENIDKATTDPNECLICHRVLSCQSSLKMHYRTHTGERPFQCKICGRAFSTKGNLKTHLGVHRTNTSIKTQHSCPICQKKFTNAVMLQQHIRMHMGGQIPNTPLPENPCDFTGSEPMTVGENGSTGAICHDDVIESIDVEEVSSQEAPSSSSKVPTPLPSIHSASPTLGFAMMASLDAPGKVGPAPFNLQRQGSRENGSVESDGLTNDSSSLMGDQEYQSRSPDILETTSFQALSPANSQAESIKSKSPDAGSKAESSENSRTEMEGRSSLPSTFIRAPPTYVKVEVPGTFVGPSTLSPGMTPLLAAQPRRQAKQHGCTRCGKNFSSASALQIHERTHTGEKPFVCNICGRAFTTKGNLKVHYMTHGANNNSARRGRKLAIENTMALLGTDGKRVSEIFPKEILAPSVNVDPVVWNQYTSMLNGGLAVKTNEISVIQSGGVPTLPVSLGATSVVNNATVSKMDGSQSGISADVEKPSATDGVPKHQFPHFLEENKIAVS
Setting: 8-mer, flanks averaged, mean of replicates
Strand | E-score
CTGTGTAA | 0.163
ACGATCCA | -0.0572
GTGATTGA | 0.203
GGCTCAAA | -0.117
CTGCGTAA | 0.0685
AATCCTAC | -0.0553

Mixed results
Molecule | target | test | system | setting | scale | endpoint | result
PhoQ, residues 284 288 289 292 302 303 SSTMSV | PhoP, residues 12 14 15 18 19 QWHVF (Escherichia coli, UniProt P23836) | Sort-seq, item: YFP reporter | E. coli | PhoQ-PhoP variant library, added: 10 µM Mg2+ | baseline: high Mg2+ state, higher = stronger signaling | fold induction | 2.18
